Assay results pooled from the literature.
± gives the spread as reported.
Technique: steady-state kinetics
B1: Por W677A (Rattus norvegicus, UniProt P00388); chain GDSHEDTSATMPEAVAEEVSLFSTTDMVLFSLIVGVLTYWFIFRKKKEEIPEFSKIQTTAPPVKESSFVEKMKKTGRNIIVFYGSQTGTAEEFANRLSKDAHRYGMRGMSADPEEYDLADLSSLPEIDKSLVVFCMATYGEGDPTDNAQDFYDWLQETDVDLTGVKFAVFGLGNKTYEHFNAMGKYVDQRLEQLGAQRIFELGLGDDDGNLEEDFITWREQFWPAVCEFFGVEATGEESSIRQYELVVHEDMDVAKVYTGEMGRLKSYENQKPPFDAKNPFLAAVTANRKLNQGTERHLMHLELDISDSKIRYESGDHVAVYPANDSALVNQIGEILGADLDVIMSLNNLDEESNKKHPFPCPTTYRTALTYYLDITNPPRTNVLYELAQYASEPSEQEHLHKMASSSGEGKELYLSWVVEARRHILAILQDYPSLRPPIDHLCELLPRLQARYYSIASSSKVHPNSVHICAVAVEYEAKSGRVNKGVATSWLRAKEPAGENGGRALVPMFVRKSQFRLPFKSTTPVIMVGPGTGIAPFMGFIQERAWLREQGKEVGETLLYYGCRRSDEDYLYREELARFHKDGALTQLNVAFSREQAHKVYVQHLLKRDREHLWKLIHEGGAHIYVCGDARNMAKDVQNTFYDIVAEFGPMEHTQAVDYVKKLMTKGRYSLDVAS
B2: enzyme L71Q/Y136L (Bradyrhizobium diazoefficiens, UniProt Q45222); chain MIQTERAVQQVLEWGRSLTGFADEHAVEAVRGGQYILQRIHPSLRGTSARTGRDPQDETLIVTFYRELALQFWLDDCNDLGLISPEQLAAVEQALGQGVPCALPGFEGCAVLRASLATLAYDRRDYAQLLDDTRCLSAALRAGHAQAVAAERWSYAEYLHNGIDSIAYANVFCCLSLLWGLDMATLRARPAFRQVLRLISAIGRLQNDLHGCDKDRSAGEADNAVILLLQRYPAMPVVEFLNDELAGHTRMLHRVMAEERFPAPWGPLIEAMAAIRVQYYRTSTSRYRSDAVRGGQRAPA
B3: proB (Escherichia coli, UniProt P0A7B5); chain MSDSQTLVVKLGTSVLTGGSRRLNRAHIVELVRQCAQLHAAGHRIVIVTSGAIAAGREHLGYPELPATIASKQLLAAVGQSRLIQLWEQLFSIYGIHVGQMLLTRADMEDRERFLNARDTLRALLDNNIVPVINENDAVATAEIKVGDNDNLSALAAILAGADKLLLLTDQKGLYTADPRSNPQAELIKDVYGIDDALRAIAGDSVSGLGTGGMSTKLQAADVACRAGIDTIIAAGSKPGVIGDVMEGISVGTLFHAQATPLENRKRWIFGAPPAGEITVDEGATAAILERGSSLLPKGIKSVTGNFSRGEVIRICNLEGRDIAHGVSRYNSDALRRIAGHHSQEIDAILGYEYGPVAVHRDDMITR
B4: enzyme (Bacteroides fragilis, UniProt Q5LAA3); chain MAMLEKIQETAAFLKGKMHTSPETAIILGTGLGSLANEITEKYEIKYEDIPNFPVSTVEGHSGKLIFGKLGNKEIMAMQGRFHYYEGYSMKEVTFPVRVMRELGIKTLFVSNASGGTNPEFEIGDLMIITDHINYFPEHPLRGKNIPYGPRFPDMSEAYDKELIRKADAIAAEKGIKVQHGIYIGTQGPTFETPAEYKLFHILGADAVGMSTVPEVIVANHCGIKVFGISVVTDLGVEGKIVEVSHEEVQKAADAAQPKMTTIMRELINRA
B5: enzyme (Haliscomenobacter hydrossis, UniProt F4KU78); chain MKQKPAFIPYAGAQFEPEEMLSKSAEYYQFMDHRRTVREFSNRAIPLEVIENIVMTASTAPSGAHKQPWTFVVVSDPQIKAKIRQAAEKEEFESYNGRMSNEWLEDLQPFGTDWHKPFLEIAPYLIVVFRKAYDVLPDGTQRKNYYVQESVGIACGFLLAAIHQAGLVALTHTPSPMNFLQKILQRPENERPFLLVPVGYPAEGAMVPDLQRKDKAAVMVVY
B6: enzyme (Populus trichocarpa, UniProt A0A2K2BRQ9); chain MVYQKKIVEEVSGWLRIFDDGWVDRTWIGPPQVKFMAEPVPPHEEFIEGVAIRDVTIDENSGLSVRIYLPQHEPDHYTDNSDKLPLIVHFHGGGFCISQADWYMYYYIYSRLARSAPAIVVSVYLRLAPEHRLPAAIDDGFSALMWLRALAQGQESYEPWLNNHGDFNRVFLIGDSSGGNLVHHVAARAGQVDLSPMRLAGGIPVHPGFVRSERSKSEMEQPESPFLTLDMVDRFLKLALPKGCTKDHPFTCPMGHAAPPLDSLNLPPFLLCVAEADLIRDTEMEYYEAMKKANKDVELLINPGVGHSFYLNKIAVDMDPHTAAQTTGLLEGIVEFIKKH
B7: ART1 (Homo sapiens, UniProt P52961); chain QSHPITRRDLFSQEIQLDMALASFDDQYAGCAAAMTAALPDLNHTEFQANQVYADSWTLASSQWQERQARWPEWSLSPTRPSPPPLGFRDEHGVALLAYTANSPLHKEFNAAVREAGRSRAHYLHHFSFKTLHFLLTEALQLLGSGQRPPRCHQVFRGVHGLRFRPAGPRATVRLGGFASASLKHVAAQQFGEDTFFGIWTCLGAPIKGYSFFPGEEEVLIPPFETFQVINASRLAQGPARIYLRALGKHSTYNCEYIKDKKCKSGPCHLDNS
B8: CYP4F3 A27G/C46R/I34V/M14V/R49Q/W12G (Homo sapiens, UniProt Q08477); chain MALLLAVFLLGPVAASPWLLLLLVGGSWLLARVLAWTYTFYDNCRRLQCFPQPPKRNWFLGHLGLVTPTEQGMRVLTQLVATYPQGFKVWMGPIFPVIRFCHPNIIRSVINASAAIVPKDKVFYSFLKPWLGDGLLLSAGEKWSRHRRMLTPAFHFNILKPYMKIFNESVNIMHAKWQLLASEGSARLDMFEHISLMTLDSLQKCVFSFDSHCQEKPSEYIAAILELSALVTKRHQQILLYIDFLYYLTPDGQRFRRACRLVHDFTDAVIQERRRTLPSQGVDDFLQAKAKSKTLDFIDVLLLSKDEDGKKLSDEDIRAEADTFMFEGHDTTASGLSWVLYHLAKHPEYQERCRQEVQELLKDREPKEIEWDDLAQLPFLTMCIKESLRLHPPVPAVSRCCTQDIVLPDGRVIPKGIICLISVFGTHHNPAVWPDPEVYDPFRFDPKNIKERSPLAFIPFSAGPRNCIGQAFAMAEMKVVLGLTLLRFRVLPDHTEPRRKPELVLRAEGGLWLRVEPLS
B9: enzyme F206A/H226Y (Oryctolagus cuniculus, UniProt P00178); chain GRLPPGPSPLPVLGNLLQMDRKGLLRSFLRLREKYGDVFTVYLGSRPVVVLCGTDAIREALVDQAEAFSGRGKIAVVDPIFQGYGVIFANGERWRALRRFSLATMRDFGMGKRSVEERIQEEARCLVEELRKSKGALLDNTLLFHSITSNIICSIVFGKRFDYKDPVFLRLLDLFFQSASLISSFSSQVFELFPGFLKYFPGTHRQIYRNLQEINTFIGQSVEKHRATLDPSNPRDFIDVYLLRMEKDKSDPSSEFHHQNLILTVLSLFFAGTETTSTTLRYGFLLMLKYPHVTERVQKEIEQVIGSHRPPALDDRAKMPYTDAVIHEIQRLGDLIPFGVPHTVTKDTQFRGYVIPKNTEVFPVLSSALHDPRYFETPNTFNPGHFLDANGALKRNEGFMPFSLGKRICLGEGIARTELFLFFTTILQNFSIASPVPPEDIDLTPRESGVGNVPPSYQIRFLAR
B10: SCO6712 S292F (Streptomyces coelicolor, UniProt Q9XAL8); chain AKGITARTAPAGGEVRHLKMYAEKLADGQMGYGFEKGKASVPGPLIEVNEGDTLHIEFTNTMDVRASLHVHGLDYEISSDGTAMNKSDVEPGGTRTYTWRTHKPGRRDDGTWRPGSAGYWHYHDHVVGTEHGTGGIRNGLYGPVIVRRKGDVLPDATHTIVFNDMTINNRKPHTGPDFEATVGDRVEIVMITHGEYYHTFHMHGHRWADNRTGILTGPDDPSRVIDNKITGPADSFGFQIIAGEGVGAGAWMYHCHVQFHSDMGMVGLFLVKKPDGTIPGYEPHEHGGATAKSGESGEPTGGAAAHEHEH
B11: LYS1 C205S/H96Q/K77M (Saccharomyces cerevisiae, UniProt P38998); chain MAAVTLHLRAETKPLEARAALTPTTVKKLIAKGFKIYVEDSPQSTFNINEYRQAGAIIVPAGSWKTAPRDRIIIGLMEMPETDTFPLVHEHIQFAQCYKDQAGWQNVLMRFIKGHGTLYDLEFLENDQGRRVAAFGFYAGFAGAALGVRDWAFKQTHSDDEDLPAVSPYPNEKALVKDVTKDYKEALATGARKPTVLIIGALGRSGSGAIDLLHKVGIPDANILKWDIKETSRGGPFDEIPQADIFINCIYLSKPIAPFTNMEKLNNPNRRLRTVVDVSADTTNPHNPIPIYTVATVFNKPTVLVPTTAGPKLSVISIDHLPSLLPREASEFFSHDLLPSLELLPQRKTAPVWVRAKKLFDRHCARVKRSSRL
B12: efeB (Bacillus subtilis, UniProt P39597); chain IGASGLGGLAPLVQTAAKPSKKDEKEEEQIVPFYGKHQAGITTAHQTYVYFAALDVTAKDKSDIITLFRNWTSLTQMLTSGKKMSAEQRNQYLPPQDTGESADLSPSNLTVTFGFGPGFFEKDGKDRFGLKSKKPKHLAALPAMPNDNLDEKQGGGDICIQVCADDEQVAFHALRNLLNQAVGTCEVRFVNKGFLSGGKNGETPRNLFGFKDGTGNQSTKDDTLMNSIVWIQSGEPDWMTGGTYMAFRKIKMFLEVWDRSSLKDQEDTFGRRKSSGAPFGQKKETDPVKLNQIPSNSHVSLAKSTGKQILRRAFSYTEGLDPKTGYMDAGLLFISFQKNPDNQFIPMLKALSAKDALNEYTQTIGSALYACPGGCKKGEYIAQRLLES
Sequence of UniProt P78804 (whole entry, looked up): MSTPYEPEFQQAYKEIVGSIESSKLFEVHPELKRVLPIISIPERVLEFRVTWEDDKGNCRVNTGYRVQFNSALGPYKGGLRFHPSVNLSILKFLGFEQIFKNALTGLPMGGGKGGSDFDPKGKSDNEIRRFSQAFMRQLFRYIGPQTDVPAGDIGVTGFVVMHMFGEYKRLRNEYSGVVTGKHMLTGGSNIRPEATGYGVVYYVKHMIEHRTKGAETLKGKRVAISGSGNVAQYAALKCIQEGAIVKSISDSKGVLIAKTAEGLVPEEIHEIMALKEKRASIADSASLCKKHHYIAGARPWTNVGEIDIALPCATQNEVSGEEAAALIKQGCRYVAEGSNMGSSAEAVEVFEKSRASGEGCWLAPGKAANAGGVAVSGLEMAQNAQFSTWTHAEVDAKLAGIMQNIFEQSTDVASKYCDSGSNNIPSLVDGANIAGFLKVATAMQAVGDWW
Sequence of UniProt Q978S7 (whole entry, looked up): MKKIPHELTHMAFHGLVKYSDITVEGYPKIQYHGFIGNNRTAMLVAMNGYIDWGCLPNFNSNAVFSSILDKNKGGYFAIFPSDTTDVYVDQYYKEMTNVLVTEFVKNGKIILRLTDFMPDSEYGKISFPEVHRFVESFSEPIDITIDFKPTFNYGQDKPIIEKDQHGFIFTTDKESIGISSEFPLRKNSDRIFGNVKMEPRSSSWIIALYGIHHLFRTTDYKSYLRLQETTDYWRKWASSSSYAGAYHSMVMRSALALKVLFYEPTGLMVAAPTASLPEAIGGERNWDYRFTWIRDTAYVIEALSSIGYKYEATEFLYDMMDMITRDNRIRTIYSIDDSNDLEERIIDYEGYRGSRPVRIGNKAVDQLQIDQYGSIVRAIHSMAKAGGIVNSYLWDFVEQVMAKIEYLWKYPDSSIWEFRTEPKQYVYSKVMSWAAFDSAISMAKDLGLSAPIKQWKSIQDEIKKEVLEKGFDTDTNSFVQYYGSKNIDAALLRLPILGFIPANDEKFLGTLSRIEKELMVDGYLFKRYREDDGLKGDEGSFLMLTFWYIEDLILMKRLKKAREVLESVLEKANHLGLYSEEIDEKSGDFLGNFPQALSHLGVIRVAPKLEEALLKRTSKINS

Molecule | substrate | pH | temperature | notes | with | kcat [s⁻¹]
B1 (Por W677A) | NC(=O)C1=CN([C@@H]2O[C@H](COP(=O)(O)OP(=O)(O)OC[C@H]3O[C@@H](n4cnc5c(N)ncnc54)[C@H](O)[C@@H]3O)[C@@H](O)[C@H]2O)C=CC1 |  |  |  | cytochrome c | 38.9 ± 9.33
B2 (enzyme L71Q/Y136L) | C=C1CC[C@@H]2C(C)(C)CCC[C@@]2(C)[C@@H]1CC/C(C)=C/COP(=O)(O)OP(=O)(O)O |  |  |  |  | 0.04 ± 0.00233
enzyme (UniProt F0RRL2) | O=P(O)(O)O[C@H]1O[C@H](CO)[C@@H](O)[C@H](O)[C@H]1O | pH 5.5 | 37 °C | apparent |  | 16.9 ± 1.2
acsA (Pseudomonas chlororaphis, UniProt Q5CD72) | CC(=O)O | pH 7 |  |  |  | 0.2 ± 0.00667
HNL C81L/E79H/G176S/H103V/K236M/N104T/T11G/V106F (Hevea brasiliensis) | CC(=O)Oc1ccc([N+](=O)[O-])cc1 | pH 7.2 | 22 °C |  |  | 0.155 ± 0.005
B3 (proB) | N[C@@H](CCC(=O)O)C(=O)O | pH 7 | 30 °C | Hill coefficient, apparent | 10 mM ATP | 5.8 ± 2
rCR (Lodderomyces parapsilosis, UniProt A1X808) | O=C(CO)c1ccccc1 | pH 7 | 30 °C |  |  | 7.19 ± 0.31
enzyme (Bacteroides fragilis, UniProt Q5LAD6) | C[C@@H]1O[C@@H](Oc2ccc([N+](=O)[O-])cc2)[C@@H](O)[C@H](O)[C@@H]1O | pH 7 | 37 °C |  |  | 1.07 ± 0.0355
B4 (enzyme) | OC[C@H]1O[C@@H](n2cnc3c(O)ncnc32)[C@H](O)[C@@H]1O |  |  |  |  | 22 ± 0.4
enzyme (Acinetobacter baumannii, UniProt A0A5P1UDB1) | O=C(O)c1ccccc1O | pH 7.5 | 37 °C | apparent |  | 0.023 ± 0.0009
B5 (enzyme) | N[C@@H](Cc1ccc(O)c(I)c1)C(=O)O | pH 7.4 | 25 °C |  | dithionite | 0.28 ± 0.03
enzyme (Thermoplasma volcanium, UniProt Q978S7) | OC[C@H]1O[C@H](O[C@H]2O[C@H](CO)[C@@H](O)[C@H](O)[C@H]2O)[C@H](O)[C@@H](O)[C@@H]1O | pH 3.7 | 30 °C |  |  | 26.6 ± 0.3
B6 (enzyme) | O=C(OCc1ccccc1)c1ccccc1O | pH 7 | 25 °C |  |  | 1.36 ± 0.19
B7 (ART1) | N=C(N)NCCC[C@H](N)C(=O)O | pH 7.5 | 25 °C | HEPES 50 mM | saturating NAD+ | 10 ± 1
B8 | CCCCC/C=C\C[C@@H](O)/C=C/C=C/C=C\[C@@H](O)CCCC(=O)O | pH 7.4 |  |  | LTB4 | 0.00317
enzyme K46A (Homo sapiens, UniProt Q08623) | O=c1[nH]cc([C@@H]2O[C@H](COP(=O)(O)O)[C@@H](O)[C@H]2O)c(=O)[nH]1 | pH 7 | 25 °C |  |  | 0.733
B9 (enzyme F206A/H226Y) | CCOc1ccc2c(C(F)(F)F)cc(=O)oc2c1 |  | 37 °C |  | 7-EFC | 0.0183 ± 0.00167
enzyme (Schizosaccharomyces pombe, UniProt P78804) | NC(=O)C1=CN([C@@H]2O[C@H](COP(=O)(O)OP(=O)(O)OC[C@H]3O[C@@H](n4cnc5c(N)ncnc54)[C@H](OP(=O)(O)O)[C@@H]3O)[C@@H](O)[C@H]2O)C=CC1 | pH 7 | 30 °C | apparent |  | 54 ± 2
B10 (SCO6712 S292F) | CCn1c(=NN=c2sc3cc(S(=O)(=O)O)ccc3n2CC)sc2cc(S(=O)(=O)O)ccc21 | pH 7 | 37 °C | NaCl 150 mM | O2 cosubstrate | 1.7 ± 0.1
B11 (LYS1 C205S/H96Q/K77M) | NCCCC[C@H](N)C(=O)O | pH 7 | 25 °C |  | NADH 0.5 mM | 0.16 ± 0.02
B12 (efeB) | Nc1c(S(=O)(=O)O)cc(Nc2cccc(S(=O)(=O)CCOS(=O)(=O)O)c2)c2c1C(=O)c1ccccc1C2=O | pH 4 | 25 °C | apparent |  | 1.5 ± 0.1

Repeated from above:
Molecule | substrate | pH | temperature | notes | with | kcat [s⁻¹]
HNL C81L/E79H/G176S/H103V/K236M/N104T/T11G/V106F (Hevea brasiliensis) | CC(=O)Oc1ccc([N+](=O)[O-])cc1 | pH 7.2 | 22 °C |  |  | 0.155 ± 0.005
B3 (proB) | N[C@@H](CCC(=O)O)C(=O)O | pH 7 | 30 °C | Hill coefficient, apparent | 10 mM ATP | 5.8 ± 2
rCR (Lodderomyces parapsilosis, UniProt A1X808) | O=C(CO)c1ccccc1 | pH 7 | 30 °C |  |  | 7.19 ± 0.31
